Measurements from different studies.
Lines come from different studies, so protocols differ. “And” joins repeats or separate records; there may be more than shown.

Polymyxin B — inhibition zone diameter (Escherichia coli; ATCC 25922; 125 µg per disc, 24 h, 37 °C): 18 mm
TLLEWLTKV — reporter activation (Jurkat T cells expressing 1G4 TCR; NFAT-eGFP reporter, fluorescence microscopy; peptide; concentration not given, HLA-A*02:01 NY-ESO system): 0.00882%
colistin — fold enhancement (Escherichia coli; tetracycline activity; tetracycline-resistant; 0.0156 µM, with: tetracycline; baseline: tetracycline alone): 2 fold
TCATCCGCTG (PNA, CPP-conjugated) — mRNA level reduction (Salmonella enterica Typhimurium; RT-qPCR, item: mrdA; peptide, SL1344; concentration not given, 30 min, sublethal dose; baseline: mock): 47%
CTCATACTGA — log2 fold change (Salmonella enterica Typhimurium; RNA-seq, item: SL1344_3670 mRNA; peptide, SL1344; 5 µM, 15 min; baseline: water control): -1.95
DAPT — MIC (Enterococcus faecium; ATCC 27270): 1.5 µg/mL
LVHYTHCGSLGV — EBV DNA copy number (Epstein-Barr virus; BamHI-W qPCR; peptide, B-NDG humanized mouse, EBV-infected, peripheral blood; 20 mg/kg, day 14): 0 copies
PMESGICTIV — binding intensity (human MAGI1-2/6 PDZ construct (MBP fusion); automated holdup; peptide, crude extract; concentration not given, corrected by standard peak, unit not given; baseline: biotin control resin, higher = stronger binding): -0.0679
TTATCGTCCC — D-lactate level (Synechocystis sp.; LC-MS; peptide, PCC 6803; 10 µM, 48 h; baseline: untreated wild type): no effect
colistin — MIC (Morganella morganii; broth microdilution; clinical isolate RKI 81/15): > 64 µg/mL
gentamicin — viable count (Escherichia coli; time-kill; 1 x MIC, 120 min): 0 log CFU/mL
TCACTATCTC — MIC (Salmonella enterica Typhimurium; broth microdilution; peptide, SL1344; range over 0.3-10 µM, 24 h, 37 °C, Mueller-Hinton broth): > 10 µM
NPDALPETLV — binding intensity (human MAGI1-2/6 PDZ construct (MBP fusion); automated holdup; peptide, crude extract; concentration not given, corrected by standard peak, unit not given; baseline: biotin control resin, higher = stronger binding): -0.0567
CTCAATCTCT — MIC (Salmonella enterica Typhimurium; broth microdilution; peptide, SL1344; range over 0.3-10 µM, 24 h, 37 °C, Mueller-Hinton broth): > 10 µM
ivermectin — viral progeny production (human adenovirus C5; reporter virus; A549; concentration not given, 72 h, highest dose, monotreatment; baseline: untreated control): 35%
Polymyxin B — membrane depolarisation (Staphylococcus aureus; DiSC3(5) fluorescence; concentration not given, 87 min; higher = more depolarisation): 495 a.u. and 478 a.u. and 399 a.u.
CTCATACTCT — log2 fold change (Salmonella enterica Typhimurium; RNA-seq, item: SL1344_3728 transcript; peptide, SL1344; 5 µM, 15 min; baseline: untreated control): 1.64
milbemycin oxime — OD600 (Saccharomyces cerevisiae; cell growth; Pdr5 deleted, Cdr1 overexpressed; 2^-2.966 µg/mL): 1 and 0.962 and 0.994
maraviroc — plasma p24 level (HIV-1 ADA; viral replication, item: HIV-1 p24 antigen; HIV-infected mice, plasma; ip, 120 mg/kg twice daily, 3 weeks post-infection): 54 pg/mL
CTCATACAGT — log2 fold change (Salmonella enterica Typhimurium; RNA-seq, item: pagN; peptide, SL1344; 5 µM, 15 min; baseline: water): 2.56
colistin — MIC (Acinetobacter baumannii; clinical isolate 1A2): 1 µg/mL
CAGATACTCT — log2 fold change (Salmonella enterica Typhimurium; RNA-seq, item: fadL mRNA; peptide, SL1344; 5 µM, 15 min; baseline: water control): -1.32
Peginesatide — EC50 (UT7/EPO; phosphorylation, agonist, item: phospho-STAT3; 10 min): 11.5 nM
